Results pooled from the literature.
A part holds a random share of what one study measured. Changes are numbered by the printed parent chain.

Set 1 — target: CCNA1, cyclin fold, Cln2 fusion (human); technique: yeast growth competition, sequencing; sample: yeast; notes: weak parent motif; reference: not given; direction: higher = stronger binding; starting sequence: viral docking peptide; KGVKRKLFAEDSS
| Variant | normalised enrichment score |
| --- | --- |
| KGVRRKLFAEDSS [K4R] | 1.74 |
| KGVKRKRFAEDSS [L7R] | 0.568 |
| KGVKRKLFAADSS [E10A] | 0.393 |
| KGVKRKLQAEDSS [F8Q] | 0.25 |
| KGVKRKLFAGDSS [E10G] | 0.206 |
| KGVKRKLFARDSS [E10R] | 0.0668 |
| KGVKRKLFPEDSS [A9P] | 1.29 |
| KGVKRKLFVEDSS [A9V] | 1.25 |
| KGTKRKLFAEDSS [V3T] | 0.578 |
| KGVKRKLFAEKSS [D11K] | 0.69 |
| KGVARKLFAEDSS [K4A] | 0.806 |
| KGVKRKPFAEDSS [L7P] | 0.00399 |
| KGVKRKLFAEPSS [D11P] | 0.953 |
| KGVKRKLFACDSS [E10C] | 0.575 |
| KGQKRKLFAEDSS [V3Q] | -0.292 |
| KGVKRKLFDEDSS [A9D] | 1.51 |
| KGVKRKLDAEDSS [F8D] | -0.302 |
| KGVKRKLFAEDPS [S12P] | 1.3 |

Set 2 — technique: competition protein-binding microarray; molecule type: double-stranded DNA, one strand shown; sample: in vitro; tested at: 2 µM; with: Pho4 competitor, 0.05 µM; direction: higher = stronger binding
Target: Centromere-binding protein 1, full length, His-tagged (CBF1, Saccharomyces cerevisiae, UniProt P17106, residues 1-351)
Sequence of UniProt P17106 (whole entry, looked up): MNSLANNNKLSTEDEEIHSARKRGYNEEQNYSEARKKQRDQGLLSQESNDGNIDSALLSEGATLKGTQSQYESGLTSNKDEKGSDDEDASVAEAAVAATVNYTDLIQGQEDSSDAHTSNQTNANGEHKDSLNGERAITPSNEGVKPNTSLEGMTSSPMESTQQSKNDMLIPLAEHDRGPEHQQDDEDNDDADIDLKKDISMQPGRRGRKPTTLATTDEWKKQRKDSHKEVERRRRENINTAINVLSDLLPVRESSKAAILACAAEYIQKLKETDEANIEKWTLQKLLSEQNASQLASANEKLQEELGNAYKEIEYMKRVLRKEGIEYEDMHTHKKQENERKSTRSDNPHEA
Notes: whole 60-bp probe, lowest competitor level
| Sequence | fluorescence intensity [a.u.] |
| --- | --- |
| TGCGCAACAACTTGTCACTGCACTTTATGTCTAGAAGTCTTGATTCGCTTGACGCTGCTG | 71.3 |
| TAATATAACGCCTTTATCGTGGGACTCTTATTAACCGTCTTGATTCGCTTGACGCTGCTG | 72.4 |
| GGTGCGCCATTATCGGTTGTGATGAACTACTGGTTGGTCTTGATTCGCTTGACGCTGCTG | 77.2 |
| GCCGGAAAAAAAAAGCACGCATCCGGCAAGCACACTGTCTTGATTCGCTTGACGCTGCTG | 82 |
| TATGATCCCTCCCATCACATGGACACTTTTAAGCAAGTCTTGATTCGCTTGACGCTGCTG | 338 |
| AACTTGCAAGGCTGTCCCGTGTCCTTCCTAATGGGTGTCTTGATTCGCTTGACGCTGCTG | 139 |
| CTTCTGTAAATTTGCTCCGTGGGTGGACGCGCCCCGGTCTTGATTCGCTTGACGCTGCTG | 82.9 |
| ACCTTAAACACTCACCACGTGCAAACAACAGAATATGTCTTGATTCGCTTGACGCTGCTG | 1480 |

Set 3 — technique: protein-binding microarray; molecule type: double-stranded DNA, one strand shown; sample: in vitro; tested at: 2540 nM top; notes: 60-bp whole probe; with: salmon DNA 0.4 mg/ml; reference: random background probes; direction: higher = stronger binding
Target: Interferon regulatory factor 3, full length, phosphomimetic (IRF3, Homo sapiens, UniProt Q14653, residues 1-427, S386D/S396D/S398D/S402D/T404D/S405D)
Sequence of UniProt Q14653 (whole entry, unmodified, looked up): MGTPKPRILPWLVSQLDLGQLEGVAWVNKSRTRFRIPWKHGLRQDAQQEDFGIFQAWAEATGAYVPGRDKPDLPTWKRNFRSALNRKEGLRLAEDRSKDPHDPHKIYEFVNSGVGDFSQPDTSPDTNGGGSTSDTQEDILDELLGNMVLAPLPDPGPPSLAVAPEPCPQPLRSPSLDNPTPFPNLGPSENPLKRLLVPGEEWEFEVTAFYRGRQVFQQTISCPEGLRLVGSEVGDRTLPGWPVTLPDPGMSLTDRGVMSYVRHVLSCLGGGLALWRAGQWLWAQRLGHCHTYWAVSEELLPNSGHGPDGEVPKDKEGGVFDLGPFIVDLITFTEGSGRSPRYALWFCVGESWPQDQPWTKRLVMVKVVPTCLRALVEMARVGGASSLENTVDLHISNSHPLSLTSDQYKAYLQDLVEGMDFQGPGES
Shared flanks, not repeated: GCCTAGCAC … GTGCTAGGTCTTGATTCGCTTGACGCTGCTG
| Sequence | fitted relative affinity [z-score] |
| --- | --- |
| GGAGAAAAATCATGAAAATA | -0.582 |
| GGTGGGGTGCAGCAGGGCCA | -1.33 |
| GACGATTTCAGTCTCGGGAC | 2.36 |
| TTAGAACTGAGTCGCGATTA | -0.385 |
| GACGAATTGAGTATCGAGAC | 0.0615 |
| GACGGTATCGTACTGGGGAC | 1.13 |
| TTAGATTTCAGTTTCAATTA | 3.97 |
| TCAAATTAGTGTTTCCCACT | 1.78 |

Set 4 — technique: DNA-protein interaction ELISA; molecule type: double-stranded DNA, one strand shown; sample: in vitro, bacterial lysate; tested at: not given; notes: whole dsDNA probe, crude lysate protein; reference: highest signal in screen; direction: higher = stronger binding
Target: Probable WRKY transcription factor 11, DNA-binding domain (WRKY11, Arabidopsis thaliana, UniProt Q9SV15, residues 228-325)
Residues (chain): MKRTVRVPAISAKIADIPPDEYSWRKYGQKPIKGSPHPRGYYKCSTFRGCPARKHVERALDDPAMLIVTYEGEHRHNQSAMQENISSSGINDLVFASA
| Sequence | relative absorbance |
| --- | --- |
| AAAAAAGCGTAAGCCTTGACAGTCGTAAAA | 18.7 % of maximum |
| AAAAAAATTACGCGGGATCGCCAAAA | 16.1 % of maximum |
| AAAAAATAATTACAAGTCGGCTCCACAAAA | 18.4 % of maximum |
| AAAAAAAACTGTCGCCCCCGGCTGGCAAAA | 13.3 % of maximum |
| AAAAAACGTTGAACCTGGGCCTCAACAAAA | 36 % of maximum |
| AAAAAATTCTTTTTTCTTCAAGGTCTAAAA | 15.8 % of maximum |
| AAAAAATGGTTTCAATTTTCCGTCCGAAAA | 10.1 % of maximum |
| AAAAAAAAATTTCGAGCCTCGGCGTAAAAA | 12.4 % of maximum |
